Measured values gathered from unrelated publications.
Protocols differ between the studies behind these lines. “And” joins repeats or separate records; there may be more than shown. Numbers after ± are the reported error.

SMILES | test | system | setting | how to read | quantity | result
CCC[C@@](N)(CO)CCc1ccc(OCCCCCC(C)C)cc1 |  | male hound dog, plasma | oral, 2.5 mg/kg, capsule, median |  | half-life | 24.1 h
CN1CC[C@@H](c2c(O)cc(O)c3c(=O)cc(-c4ccc(C(F)(F)F)cc4Cl)oc23)[C@@H]1CO | measured: Leukopenia | relapsed AML | oral, 100 mg, grade 3-4, intermittent dosing |  | patients with adverse event | 0%
Clc1cc(Cl)c(-c2cc(Cl)c(Cl)c(Cl)c2Cl)cc1Cl |  | fresh water | 12 (unit not given), 20 °C, S100 sampler, 100 µm |  | log K(PDMS-water) | 6.73 ± 0.1
COc1ccnc(C(=O)N[C@H]2COC(=O)[C@H](Cc3ccccc3)[C@@H](OC(=O)C(C)C)[C@H](C)OC2=O)c1OCOC(=O)C(C)C |  | field soil, loam | actual, UK |  | DT50 | 11.6 days
O[C@H]1CCCN[C@@H]1CCCn1cnc2c(Cl)c(Cl)ccc21 |  | healthy CYP2D6 extensive/ultrarapid metabolizers, plasma | oral, 150 mg multiple doses |  | median AUCtau | 785 ng·h/mL
Clc1cc(Cl)c(-c2c(Cl)cc(Cl)cc2Cl)c(Cl)c1 |  | polyethylene-water partitioning | PCB compilation | baseline: maximum over minimum K | literature range factor | 2
COc1cc2c(Oc3ccc4[nH]c(C)cc4c3F)ccnc2cc1OCC1(N)CC1 |  | paediatric refractory sarcoma patients | 8 mg |  | grade 3 bone pain | 0%
CC(C)[C@H](O)C(=O)N[C@H]1Cc2ccc3c(c2)[C@]2(C4=C(c5nc(CO)co5)N=C(O4)[C@H](C(C)(C)C)NC1=O)c1cc(F)ccc1N[C@@H]2O3 |  | NSG mice, lung | intravenous, 10 mg/kg, single dose at MTD, with: paclitaxel 40 mg/kg |  | terminal half-life | 7 h
CC[C@H](C)[C@H](NC(=O)[C@H](Cc1ccccc1)NC(=O)[C@H](CCC(=O)O)NC(=O)[C@H](CCCNC(=N)N)NC(=O)[C@H](C)NC(=O)[C@H](C)NC(=O)[C@H](CCC(N)=O)NC(=O)[C@H](CCC(=O)O)NC(=O)[C@H](CCC(=O)O)NC(=O)[C@H](CC(C)C)NC(=O)[C@H](Cc1ccc(O)cc1)NC(=O)[C@H](CO)NC(=O)[C@H](CO)NC(=O)[C@@H](NC(=O)[C@H](CC(=O)O)NC(=O)[C@H](CO)NC(=O)[C@@H](NC(=O)[C@H](Cc1ccccc1)NC(=O)[C@@H](NC(=O)CNC(=O)[C@H](CCC(=O)O)NC(=O)[C@H](C)NC(=O)CCc1cnc[nH]1)[C@@H](C)O)[C@@H](C)O)C(C)C)C(=O)N[C@@H](C)C(=O)N[C@@H](Cc1c[nH]c2ccccc12)C(=O)N[C@@H](CC(C)C)C(=O)N[C@H](C(=O)N[C@@H](CCCNC(=N)N)C(=O)NCC(=O)N[C@@H](CCCNC(=N)N)C(=O)N[C@@H](CCCCNC(=O)COCCOCCNC(=O)COCCOCCNC(=O)CC[C@H](NC(=O)CCCCCCCCCCCCCCCCC(=O)O)C(=O)O)C(=O)NCC(=O)NCC(=O)N[C@@H](CO)C(=O)N[C@@H](CCCCNC(=O)[C@H](CCCCNC(=O)[C@H](CCCCNc1c(NCCCCCN(O)C(=O)CCC(=O)NCCCCCN(O)C(=O)CCC(=O)NCCCCCN(O)C(C)=O)c(=O)c1=O)Nc1c(NCCCCCN(O)C(=O)CCC(=O)NCCCCCN(O)C(=O)CCC(=O)NCCCCCN(O)C(C)=O)c(=O)c1=O)NC(=O)[C@H](CCCCNc1c(NCCCCCN(O)C(=O)CCC(=O)NCCCCCN(O)C(=O)CCC(=O)NCCCCCN(O)C(C)=O)c(=O)c1=O)Nc1c(NCCCCCN(O)C(=O)CCC(=O)NCCCCCN(O)C(=O)CCC(=O)NCCCCCN(O)C(C)=O)c(=O)c1=O)C(=O)O)C(C)C [zirconium-89 labelled] | ex vivo gamma counting | Sprague-Dawley rat, male, pancreas | intravenous, 1 nmol, 24 h |  | tissue uptake | 0.433 %ID/g and 0.35 %ID/g and 0.331 %ID/g and 0.387 %ID/g and 0.346 %ID/g
Cc1c(COC(=O)[C@@H]2[C@H](/C=C(\Cl)C(F)(F)F)C2(C)C)cccc1-c1ccccc1 (racemic) | measured: CYP2C8 | human, age 5 years, recombinant human CYP2C8 | 0.1 µM |  | enzyme contribution to clearance | 6.97%
NC(=O)c1cccc(-c2cc(OC(=O)NC3CCCCC3)ccc2O)c1 |  | mouse | intravenous, 10 mg/kg |  | elimination half-life | 96 min
Clc1ccc(Cl)c(-c2cc(Cl)ccc2Cl)c1 |  | Sprague Dawley rat, spleen | intraperitoneal, 1 mg/kg |  | relative organ weight | 0.0025 g/g body weight
COc1ccc(-c2c(-c3ccc(C#N)c(F)c3)nc(N3CCC(N)CC3)n(C)c2=O)cc1F | measured: duodenal obstruction | human patients | oral, 60 mg, dose expansion |  | serious TEAE incidence | 0%
C[C@]1(O)C[C@@](N)(c2ccc(-c3nc4n(c3-c3ccccc3)COc3ccncc3-4)cc2)C1 |  | human, advanced or metastatic solid tumours | 28 mg intermittent, phase I dose escalation |  | patients with Hyperglycemia TEAE | 66.7%
O=C1Nc2cc3[nH]nc(-c4ccncc4)c3cc2CN1Cc1ccccc1 | measured: infusion-related reaction | patients with advanced solid tumours | intravenous, dose not given |  | patients with TEAE | 22%
COc1cc2c(cc1OC)CN(CCc1ccc(NC(=O)c3cccc4c(=O)c5cccc(OC)c5[nH]c34)cc1)CC2 |  | CD-1 mouse, male, lung | intraperitoneal, 30 mg/kg |  | Tmax | 2 h
NC(=O)[C@H]1CCN(c2ncnc(N)c2F)C[C@@H]1N1CCC[C@@H](Nc2cc(Cl)cc(C(F)(F)F)c2)C1=O |  | B-cell malignancy patients | oral, 20.5 mg twice daily, dose |  | grade ≥3 bilirubin increase | 0%
O=C(Nc1ccccc1)C1CCN(C(=O)Oc2cccnc2)CC1 | measured: Headache | healthy female human | concentration not given, all doses pooled |  | adverse event incidence | 29%
CC[C@H](C)[C@H](NC(=O)[C@H](Cc1ccc(O)cc1)NC(=O)[C@@H]1CCCN1C(=O)[C@H](CCCNC(=N)N)NC(=O)[C@@H](N)CCCNC(=N)NC(=O)NCCCCNC(=O)CCCCCN1\C(=C/C=C/C=C/C2=[N+](CCCCS(=O)(=O)[O-])c3ccccc3C2(C)C)C(C)(C)c2cc(S(=O)(=O)O)ccc21)C(=O)N[C@@H](CC(C)C)C(=O)O |  | PBS | pH 7.4 | baseline: cresyl violet perchlorate | fluorescence quantum yield | 30%
CO[C@H]1C[C@@H]2CC[C@@H](C)[C@@](O)(O2)C(=O)C(=O)N2CCCC[C@H]2C(=O)O[C@H]([C@H](C)C[C@@H]2CC[C@@H](OC(=O)NCCOCCOCCOCCOCCOCCOCCOCCOCCC(=O)N3CCc4cc(Cn5nc(-c6ccc7oc(N)nc7c6)c6c(N)ncnc65)ccc4C3)[C@H](OC)C2)C[C@@H](O)[C@H](C)/C=C(\C)[C@@H](O)[C@@H](OC)C(=O)[C@H](C)C[C@H](C)/C=C/C=C/C=C/1C |  | patients with advanced solid tumours | intravenous, 1.6 mg/3 mg weekly, any grade |  | incidence of Fatigue TEAE | 60%

SMILES | test | system | setting | how to read | quantity | result
c1cc2ccc3ccc4ccc5cccc6c(c1)c2c3c4c56 |  | fresh water | 12 (unit not given), 20 °C |  | log K(PDMS-water) | 5.51 ± 0.09
CC(C)C[C@@H]1NC(=O)CNC(=O)[C@H](CC(N)=O)NC(=O)[C@H](CCCNC(=N)N)NC(=O)[C@H]([C@@H](C)O)NC(=O)[C@@H]2CSSC[C@@H]3NC(=O)[C@H]([C@@H](C)O)NC(=O)[C@H](CCCCN)NC(=O)CNC(=O)[C@H](C(C)C)NC(=O)[C@@H]4CSSC[C@H](NC(=O)[C@H]([C@@H](C)O)NC(=O)[C@H](CSSC[C@H](NC(=O)[C@H](C(C)C)NC(=O)[C@@H]5CCCN5C1=O)C(=O)NCC(=O)N[C@@H](CCC(=O)O)C(=O)N[C@@H]([C@@H](C)O)C(=O)N4)NC(=O)CNC(=O)[C@@H]1CCCN1C(=O)[C@H]([C@@H](C)O)NC(=O)[C@H](CC(N)=O)NC3=O)C(=O)N[C@@H](CO)C(=O)N[C@@H](Cc1c[nH]c3ccccc13)C(=O)N1CCC[C@H]1C(=O)N[C@@H](C(C)C)C(=O)N2 | HPLC | ammonium bicarbonate | 180 µM, 7 days, pH 9.0, 25 °C, deamidation stability |  | remaining peptide | 95.3 ± 0.2%
COc1cccc(Oc2ccccc2NC(=O)CNC(=O)c2cccc3ccccc23)c1 |  | esterase-deficient SCID mice, male, blood | oral, 15 mg/kg/day, 14 days, toxicity study | baseline: white cells | eosinophils | 1.4% and 3% and 0%
CCOc1cc(Oc2ccc(C(F)(F)F)cc2Cl)ccc1[N+](=O)[O-] |  | rat male | 31.25 mg/kg, 8 days |  | body weight gain | 72.8%
NCCCC[C@@H]1NC(=O)[C@@H](Cc2c[nH]c3ccccc23)NC(=O)[C@H](c2ccccc2)NC(=O)[C@@H]2C[C@@H](OC(=O)NCCN)CN2C(=O)[C@H](Cc2ccccc2)NC(=O)[C@H](Cc2ccc(OCc3ccccc3)cc2)NC1=O |  | healthy volunteers, female | 600 µg twice daily, 0.0 h, post hoc |  | placebo-corrected QTcF change | 3.6 ms
O=C(O)CCCOc1ccc(F)cc1-c1cc(-c2ccccc2C(F)(F)F)n(-c2ccccc2)n1 | measured: Glu | Crl:CD(SD) rats, female, blood | iv, 25 µg/kg, 14 days |  | blood chemistry | 123 ± 17.8 mg/dL
CCN1CC2(CCN(CCc3cc(F)ccc3F)CC2)O[C@H](C)C1=O |  | ferret, plasma | intraperitoneal, 0.5 mg/kg |  | AUC(0-inf) | 1100 ± 102 ng·h/mL
CN[C@H]1CC[C@@H](c2ccc(Cl)c(Cl)c2)c2ccccc21 |  | CD-1 mouse, male, plasma | intraperitoneal, 1 mg/kg |  | elimination rate constant | 9.42e-05 s⁻¹
CC(=O)c1c([O-])cc(C)oc1=O.[Na+] |  | female Wistar rat, plasma | oral, 200 mg/kg, no CYP inhibitor |  | volume of distribution | 0.76 ± 0.03 L/kg
CN[C@H](CC(C)C)C(=O)N[C@H]1C(=O)N[C@@H](CC(N)=O)C(=O)N[C@H]2C(=O)NC3C(=O)N[C@H](C(=O)N[C@H](C(=O)NCCC[N+](C)(C)C)c4cc(O)cc(O)c4-c4cc3ccc4O)[C@H](O)c3ccc(c(Cl)c3)Oc3cc2cc(c3OC2OC(CO)C(O)[C@H](O)[C@@H]2O[C@H]2CC(C)(NCc3ccc(-c4ccc(Cl)cc4)cc3)[C@H](O)[C@H](C)O2)Oc2ccc(cc2Cl)[C@H]1O (stereo partly shown) |  | mouse | intravenous |  | MTD | 50 mg/kg
CN1CCN(c2ccc(Nc3nccc(-c4cccc(C#N)c4)n3)cc2C(F)(F)F)CC1 |  | zebrafish embryos | 25 µM, 5 d |  | toxicity | 0%
Cc1nc([C@@](C)(CC2CC2)NC(=O)c2cc(OCC(F)(F)F)c(C3CC3)cn2)no1 |  | C57BL/6 mice | oral, 2.8 mg/kg |  | dose-normalised AUC(0-inf) | 729 kg·ng·h/mL/mg
CCN1CCN(Cc2ccc(Nc3ncc(F)c(-c4cc(F)c5nc6n(c5c4)[C@H](C)CCC6)n3)nc2)CC1 |  | advanced solid tumour patients | dose not given, Phase Ia monotherapy |  | Anemia incidence, grade ≥3 | 12.5%
O=C(Nc1ccccc1)C1CCN(C(=O)Oc2cccnc2)CC1 | psychotropic effects VAS | healthy women | 60 mg | baseline: pre-dose baseline, direction not given | change in Surroundings score | 0.1
COc1ncnn2ccc(-c3cnc4nc(C)n(Cc5nnc([C@@H](C)F)o5)c4c3)c12 |  | human patients | oral, dose not given |  | incidence of grade 1 decreased WBC | 0%
C[C@]1(CO)Cc2ncn(-c3ccc(C#N)c(Cl)c3)c2C(=O)O1 |  | healthy humans | oral, 10 mg | baseline: fasted | AUC0–tz ratio fed over fasted | 103%
C[C@@H](NC(=O)N1C(=O)[C@H](Cc2ccnc(N)c2)[C@H]1C(=O)O)C1CCCCC1 |  | healthy adult Chinese volunteers | continuous intravenous infusion, 0.3 mg/kg/h, 5-day infusion, CTCAE 5.0 grading |  | incidence of infusion site pain | 0%
Clc1ccc(Cl)c(-c2cccc(Cl)c2Cl)c1 |  | polyethylene-water partitioning | PCB compilation | baseline: maximum over minimum K | literature range factor | 1.3
[131I-].[Na+] |  | hyperthyroidism patients | 185 MBq, long-term follow-up |  | non-thyroid malignancy incidence | 0.8%
O=C(O)CCC(CP(=O)(O)O)C(=O)O (stereo not shown) |  | rat, plasma | 0.3 µg/mL, 28 days, -80 °C, long-term stability | baseline: nominal concentration | relative error | -15.2%

Some of these lines once more:
SMILES | test | system | setting | how to read | quantity | result
NC(=O)[C@H]1CCN(c2ncnc(N)c2F)C[C@@H]1N1CCC[C@@H](Nc2cc(Cl)cc(C(F)(F)F)c2)C1=O |  | B-cell malignancy patients | oral, 20.5 mg twice daily, dose |  | grade ≥3 bilirubin increase | 0%
O=C(Nc1ccccc1)C1CCN(C(=O)Oc2cccnc2)CC1 | measured: Headache | healthy female human | concentration not given, all doses pooled |  | adverse event incidence | 29%
CC[C@H](C)[C@H](NC(=O)[C@H](Cc1ccc(O)cc1)NC(=O)[C@@H]1CCCN1C(=O)[C@H](CCCNC(=N)N)NC(=O)[C@@H](N)CCCNC(=N)NC(=O)NCCCCNC(=O)CCCCCN1\C(=C/C=C/C=C/C2=[N+](CCCCS(=O)(=O)[O-])c3ccccc3C2(C)C)C(C)(C)c2cc(S(=O)(=O)O)ccc21)C(=O)N[C@@H](CC(C)C)C(=O)O |  | PBS | pH 7.4 | baseline: cresyl violet perchlorate | fluorescence quantum yield | 30%
